Measurements gathered from unrelated publications.
Compare with care: the assays were run in different laboratories. Values joined by “and” are separate records of one study, mostly repeats; a detail may differ. ± gives the spread as reported.
rep main protease: Replicase polyprotein 1ab, main protease (rep, Severe acute respiratory syndrome coronavirus 2, UniProt P0DTD1)
rep nsp16 with nsp10: Replicase polyprotein 1ab, nsp16 with nsp10 (rep, Severe acute respiratory syndrome coronavirus 2, UniProt P0DTD1)
rep papain-like protease: Replicase polyprotein 1ab, papain-like protease (rep, Severe acute respiratory syndrome coronavirus 2, UniProt P0DTD1)
rep nsp13 helicase: Replicase polyprotein 1ab, nsp13 helicase (rep, Severe acute respiratory syndrome coronavirus 2, UniProt P0DTD1)
rep methyltransferase: Replicase polyprotein 1ab, methyltransferase (rep, Severe acute respiratory syndrome coronavirus 2, UniProt P0DTD1)

With `CNc1nc(NC(CCO)c2ccccc2Cl)nc(N2CCN(C(=O)CCl)C(C(=O)NCCC(N)=O)C2)n1` (centres unmarked) the IC50 was 0.44 µM (rep main protease; enzyme activity, inhibitor).
`Cc1ccc(C)c(COn2nnc3ccc(S(=O)(=O)N(C)C)cc32)c1` has an IC50 of greater than 100 µM (rep main protease; enzyme activity, inhibitor).
`Nc1ncnc2c1ncn2[C@@H]1O[C@H](CSCc2cc(C#CCO)cc(C(=O)O)c2)[C@@H](O)[C@H]1O` gave an IC50 of 0.0046 ± 0.0002 µM (rep nsp16 with nsp10; methyltransferase activity, inhibitor; 30 min, 30 °C, together with: SAM 10 µM).
`Cc1cncc(C(=O)N2CCC(=C3c4ccccc4CS(=O)(=O)c4ccccc43)CC2)c1` gave an IC50 of 0.012 µM (rep main protease; enzyme activity, inhibitor).
The IC50 of `Nc1ncnc2c1ncn2[C@@H]1O[C@H](CSCc2ccc3ccccc3c2Br)[C@@H](O)[C@H]1O` is reported as 87 ± 18 µM (rep nsp16 with nsp10; methyltransferase activity, radiometric; together with: 3H-SAM).
The IC50 of `O=C(Oc1cncc(Cl)c1)c1cccs1` is reported as 0.088 µM (rep main protease; enzyme activity, inhibitor).
`CC(C)C[C@@H]1NC(=O)[C@H](C(C)C)NC(=O)[C@H](C)NC(=O)[C@H](Cc2ccc(O)cc2)NC(=O)[C@H](CCC(N)=O)NC(=O)[C@H](CC(C)C)NC(=O)[C@@H](Cc2ccc(O)cc2)NC(=O)CSC[C@@H](C(N)=O)NC(=O)[C@H](CCC(=O)O)NC(=O)[C@H](CCCNC(=N)N)NC(=O)[C@H](CCCNC(=N)N)NC(=O)[C@H](CCCCN)NC(=O)[C@H](Cc2c[nH]cn2)NC(=O)[C@H](CCCNC(=N)N)NC1=O` has an IC50 of greater than 10 µM (rep papain-like protease; enzyme activity, inhibitor).
`O=C1CC(c2ccccc2)Oc2cc(O[C@@H]3O[C@H](CO)[C@@H](O)[C@H](O)[C@H]3O)ccc21` (some centres unmarked) gave an IC50 of 2.88 µM and 2.8 µM (rep nsp13 helicase; helicase unwinding activity).
With `O=C(Cn1nnc2ccccc21)Nc1ccccc1-c1cccs1` the IC50 was greater than 100 µM (rep main protease; enzyme activity, inhibitor).
With `N[C@H](C[Se][Se]C[C@@H](N)C(=O)O)C(=O)O` the IC50 was 64.9 µM (rep main protease; enzyme activity, inhibitor).
With `O=c1c(O)c(-c2ccc(O)cc2)oc2c(O)c(O)cc(O)c12` the IC50 was 6.25 ± 0.3 µM (rep main protease; inhibitor).
For `CNC(=O)C[C@H](Cc1ccncc1)NC(=O)[C@@H](Cc1cccc(Br)c1)NC(=O)[C@@H](N)Cc1cccc(F)c1`, the IC50 was 6 µM (rep main protease; enzyme activity, inhibitor, fluorescence).
`COC(=O)C(NC(=O)CC(OC(C)=O)C(Cc1ccccc1)NC(=O)OC(C)(C)C)C(C)C` (centres unmarked) gave an IC50 of 4.06 µM (rep papain-like protease; enzyme activity, inhibitor, FRET).
The IC50 of `CC(C)C[C@H](NC(=O)[C@H](CCCN)NC(=O)[C@@H](NC(=O)[C@@H](N)CCC(N)=O)C(C)C)C(=O)N[C@H](/C=C/S(=O)(=O)c1ccc(O)cc1)C[C@@H]1CCNC1=O` is reported as 1.6 µM (rep main protease; enzyme activity, inhibitor; with preincubation).
`N#Cc1ccccc1CC(N)C(=O)NC(Cc1ccc(Cl)cc1Cl)C(=O)NC(CC(=O)NCCCc1ccncc1)Cc1ccc(F)cc1` (centres unmarked) gave an IC50 of 0.05 µM (rep main protease; enzyme activity, inhibitor, fluorescence).
With `Cc1ccc(NC(=S)N/N=C/c2ccccc2O)cc1` the IC50 was 3.61 µM (rep main protease; enzyme activity, inhibitor, FRET).
`CCC(C(=O)Nn1cccc1)n1cccc2nc(SCc3ccc(F)cc3)nc1-2` (centres unmarked) has an IC50 of 2.63 µM (rep papain-like protease; enzyme activity, inhibitor).
The IC50 of `O=C1OC[C@H]2[C@@H]1CO[C@H]2c1ccc2c(c1)OCO2` is reported as 0.917 ± 0.05 µM (rep main protease; enzyme activity, inhibitor, FRET).
`CC(=O)N(c1ccc(C(C)(C)C)cc1)C(C(=O)NCCc1cccc(F)c1)c1cccnc1` (centres unmarked) gave an IC50 of greater than 20 µM (rep main protease; enzyme activity, inhibitor).
The IC50 of `C=CCn1c(C)cc(C(=O)COn2nnc3ccc(S(=O)(=O)N(C)C)cc32)c1C` is reported as 0.58 µM (rep main protease; enzyme activity, inhibitor, FRET).
For `CC(=O)Oc1ccc(/C=C/C(=O)O[C@@H]2Cc3c(O)cc(O)cc3O[C@@H]2c2ccc(O)c(O)c2)cc1OC(C)=O`, the IC50 was 23.1 µM (rep main protease; enzyme activity, inhibitor, FRET).
The IC50 of `CN(C)CCCCCNC(=O)C[C@H](Cc1ccc(F)cc1)NC(=O)[C@@H](Cc1ccc(Cl)cc1Cl)NC(=O)[C@H](N)Cc1ccccc1C#N` is reported as 0.01 µM (rep main protease; enzyme activity, inhibitor, fluorescence).
The IC50 of `Cc1ccc(C(=O)NCc2ccc(C)c(C(=O)N[C@H](C)c3cccc4ccccc34)c2)cc1Cl` is reported as 29 µM (rep papain-like protease; enzyme activity, inhibitor).
`CCCCNC(=O)C[C@H](Cc1ccc(F)cc1)NC(=O)[C@@H](Cc1ccc(Cl)cc1Cl)NC(=O)[C@H](N)Cc1ccccc1C#N` has an IC50 of 0.2 µM (rep main protease; enzyme activity, inhibitor, fluorescence).
With `COC(=O)C[C@@H](C(=O)OC)n1[se]c2ccccc2c1=O` the IC50 was 0.101 µM (rep main protease; enzyme activity, inhibitor).
`O=C(O[C@@H]1Cc2c(O)cc(O)cc2O[C@@H]1c1ccc(O)c(O)c1)c1cc(O)c(O)c(O)c1` has an IC50 of 71.8 µM (rep main protease; enzyme activity, inhibitor).
With `CC(=O)Nc1ccc(S(=O)(=O)NNc2ncnc3sccc23)cc1` the IC50 was 53.6 ± 7.4 µM (Replicase polyprotein 1ab, nsp3 macrodomain (rep, Severe acute respiratory syndrome coronavirus 2, UniProt P0DTD1); ADP-ribose binding, inhibitor, fluorescence polarization; Mac1 domain, SARS-CoV-2).
`CC(C)CCCCCCCCCCCCc1cc(O)cc(O)c1` gave an IC50 of 13 µM (rep main protease; enzyme activity, inhibitor; with preincubation).
`O=c1c2ccccc2sn1-c1ccccc1` gave an IC50 of 0.2 ± 0.02 µM (rep main protease; enzyme activity, inhibitor; 2.5 min preincubation).
The IC50 of `Cc1ccc(OCCN(C)C)cc1C(=O)N[C@H](C)c1cc(-c2cnn(C)c2)cc(-c2cncs2)c1` is reported as 0.108 µM (rep papain-like protease; enzyme activity, inhibitor, FRET).
`CC(C)C[C@H](NC(=O)c1cc2c(OC(F)(F)F)cccc2[nH]1)C(=O)N[C@@H](C[C@@H]1CCNC1=O)C(=O)c1nc2ccccc2s1` gave an IC50 of 2.5 µM (rep main protease; enzyme activity, inhibitor).
With `CC(C)(C)c1ccc(N(C(=O)C(F)Cl)C(C(=O)Nc2ccc3ccncc3c2)c2cccnc2)cc1` (single isomer, unassigned) the IC50 was 1.43 µM (rep main protease; enzyme activity, inhibitor).
`CCC1CC(c2ccc(C(=O)O)cc2C)=NN1c1ccc(C#N)c(Cl)c1` (centres unmarked) has an IC50 of 0.24 µM (rep methyltransferase; enzyme activity, inhibitor).
For `CCOC(=O)[C@H](C(C)C)n1[se]c2ccccc2c1=O`, the IC50 was 0.0563 µM (rep main protease; enzyme activity, inhibitor).
The IC50 of `Cc1c(C(=O)N2c3ccccc3NC(=O)C2CC(=O)Nc2ccc(Cl)c(Cl)c2)oc2ccccc12` (centres unmarked) is reported as less than 50 µM (rep main protease; Rev-Nluc reporter, inhibitor).
`CC(C)[C@H](NC(=O)c1ccccc1[Se][Se]c1ccccc1C(=O)N[C@H](C(=O)O)C(C)C)C(=O)O` gave an IC50 of 4.87 µM (rep main protease; enzyme activity, inhibitor).
For `Nc1ncnc2c1ncn2[C@@H]1O[C@H](CSCCNC(=O)NCC2CCCCC2)[C@@H](O)[C@H]1O`, the IC50 was 3.4 ± 1.4 µM (Replicase polyprotein 1ab, nsp14 (rep, Severe acute respiratory syndrome coronavirus 2, UniProt P0DTD1); nsp14 methyltransferase activity, inhibitor, radiometric SPA; 20 min, together with: 3H-SAM 250 nM, RNA 50 nM).
With `CCC(C(=O)Nc1ccc(C)cc1)n1c(SCc2ccc(F)cc2)nc2ncccc21` (centres unmarked) the IC50 was greater than 20 µM (rep papain-like protease; enzyme activity, inhibitor).
For `CCc1ccccc1NC(=S)N/N=C/c1ccc(O)cc1`, the IC50 was 19.1 µM (rep main protease; enzyme activity, inhibitor, FRET).
The IC50 of `O=C(Oc1cncc(Cl)c1)c1ccco1` is reported as 0.59 µM (rep main protease; enzyme activity, inhibitor).
With `Cc1nc(-c2cccnc2)sc1C(=O)Nc1ccccc1-c1cn2c(CN3CCOCC3)csc2n1` the IC50 was 85 µM (rep main protease; enzyme activity, inhibitor).
For `COc1cc(-c2oc3cc(O)cc(O)c3c(=O)c2O[C@@H]2O[C@H](CO[C@@H]3O[C@@H](C)[C@H](O)[C@@H](O)[C@H]3O)[C@@H](O)[C@H](O)[C@H]2O)cc(O)c1O`, the IC50 was 13.9 µM (rep main protease; enzyme activity, inhibitor; 63 min preincubation).
`CC(=O)N[C@@H](Cc1ccc(O)cc1)C(=O)N[C@@H](CC(=O)O)C(=O)NCCC(=O)N[C@@H](Cc1ccccc1)C(=O)N[C@@H](Cc1ccc(O)cc1)C(=O)NCCC(=O)N[C@@H](Cc1ccc(O)cc1)C(=O)N[C@H](C(=O)N[C@H](C(=O)N[C@@H](Cc1ccccc1)C(=O)N[C@@H](Cc1c[nH]cn1)C(=O)N[C@H](C(=O)N[C@@H](C)C(=O)N[C@H](C(N)=O)[C@@H](C)O)C(C)C)[C@@H](C)O)C(C)C` has an IC50 of 0.77 µM (rep main protease; enzyme activity, inhibitor).
`Brc1c(Br)c(Br)c2[nH]nnc2c1Br` has an IC50 of 9.87 µM (rep methyltransferase; enzyme activity, inhibitor).
For `Oc1ccc(/C=N/NC(=S)Nc2ccccc2)c(O)c1`, the IC50 was 8.45 µM (rep main protease; enzyme activity, inhibitor, FRET).
`CCC1c2ccsc2CCN1C(=O)Cn1cc(CC2NC(=O)NC2=O)nn1` (centres unmarked) has an IC50 of greater than 100 µM (rep main protease; enzyme activity, inhibitor).
For `COc1cc(/C=C/C(=O)O)ccc1O`, the IC50 was greater than 30 µM (rep nsp13 helicase; ATPase activity; no nucleic acid).
